Results gathered from unrelated publications.
Each numbered part is a random draw from the data of one study; scales do not carry over between parts.

Set 1 — technique: competition protein-binding microarray; molecule type: double-stranded DNA, one strand shown; medium: in vitro; concentration: 2 µM; with: Pho4 competitor, 0.05 µM; reading: higher = stronger binding; quantity: fluorescence intensity
Target: Centromere-binding protein 1, full length, His-tagged (CBF1, Saccharomyces cerevisiae, UniProt P17106, residues 1-351)
Chain of UniProt P17106 (whole entry, looked up): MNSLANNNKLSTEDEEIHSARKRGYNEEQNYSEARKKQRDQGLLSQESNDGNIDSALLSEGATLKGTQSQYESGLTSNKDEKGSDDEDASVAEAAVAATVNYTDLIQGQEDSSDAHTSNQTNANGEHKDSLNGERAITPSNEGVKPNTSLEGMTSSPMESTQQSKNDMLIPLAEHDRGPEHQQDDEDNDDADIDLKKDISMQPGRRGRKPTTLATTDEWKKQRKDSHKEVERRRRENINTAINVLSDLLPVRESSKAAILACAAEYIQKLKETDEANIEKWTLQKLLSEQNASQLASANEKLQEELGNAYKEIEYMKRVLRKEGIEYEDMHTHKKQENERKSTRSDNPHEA
Setting: whole 60-bp probe, lowest competitor level
AGCTCTAACAAAGTCAACGTGTAAGGCAGCAACTGGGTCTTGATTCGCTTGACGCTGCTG: 91 a.u.
CTTTCCCGATCTTGTCACGTGTTTTTAGCACATTTGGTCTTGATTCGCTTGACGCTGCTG: 6020 a.u.
TGCGCAACAACTTTTCACGTGTTGTTATGTCTAGAAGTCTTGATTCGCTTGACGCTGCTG: 1080 a.u.
AGATTCTGCAAATGGTACGTGATGGTGGTCCGCGGAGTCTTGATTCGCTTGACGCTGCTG: 76.2 a.u.
GAAAGCACTGGCAAGAACGTGTTGAAGTGCACTTCGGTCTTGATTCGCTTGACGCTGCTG: 76.7 a.u.
AAAGCGGTAATTTGTCACACAACTTCACATATCTATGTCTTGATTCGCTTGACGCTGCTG: 102 a.u.
TATTCCGGAAGATATCAGGTGAGAGAGAAAAGACAGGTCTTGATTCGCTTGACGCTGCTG: 229 a.u.
CGGGGTTAAGTTTGTCCTGTGGGTGGCTTGCAGCAGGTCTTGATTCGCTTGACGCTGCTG: 66.6 a.u.
AGCAGCAATCCGCTGGACGTGGGTAAGTTGAAAGTTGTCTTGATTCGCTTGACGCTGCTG: 44.2 a.u.
TTATTTTTTCAGTCGCTCGTGGTCGATCGCCAACTTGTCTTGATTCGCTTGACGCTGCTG: 90.2 a.u.
CTTCTGTAAATTTTTCACGTGTCATGACGCGCCCCGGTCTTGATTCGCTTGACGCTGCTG: 995 a.u.
ATACTACCACACTTTCATGTGATGAAAGGTGAAACTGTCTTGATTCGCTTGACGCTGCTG: 170 a.u.
CTATACCTGACGGTCCACGGGGTTGGCAGCCCGGTCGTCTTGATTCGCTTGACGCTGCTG: 73.6 a.u.
TGACCGCTCCACCGGCATGCGTGTAGTCATCCCGCAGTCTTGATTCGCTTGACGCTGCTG: 49.8 a.u.
GGTACGAGAATCGAACCCGTGTCCTCACCTTGGAAGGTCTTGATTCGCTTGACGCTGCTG: 94.9 a.u.
CTTTGAACATTAAGGCACATGACAGGCTATGAGCCCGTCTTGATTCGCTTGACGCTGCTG: 468 a.u.
CACCTAACAGGCCGTCACGGCCCTGCATCGCAGATTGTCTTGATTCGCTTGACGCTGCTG: 68.4 a.u.
CACTGTAGATGAACACACACTAAACGACAATAAGACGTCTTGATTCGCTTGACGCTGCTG: 77.4 a.u.
CACAAAGGTTCGTTGACCGTGCCGAGGAACTTCCGCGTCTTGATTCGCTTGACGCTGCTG: 64 a.u.
GTCTTGTCTCATTGACGCGTGGGTGTCCCCACTTCAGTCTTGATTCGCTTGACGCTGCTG: 85.1 a.u.
TTTTGTGAGCTTTCTTTTTACTCAAACGAACTGTGTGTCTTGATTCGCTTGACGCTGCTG: 86.2 a.u.
CGGGGTTAAGTTTGTCACGCGACTTGCTTGCAGCAGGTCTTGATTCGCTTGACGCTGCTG: 519 a.u.
TGCGCAACAACTTGCCACGTGTTTTTATGTCTAGAAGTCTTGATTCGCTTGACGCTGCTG: 1510 a.u.
AACAGATTCGGTGAGCTCGTGAGGTTTGAAGGCAGTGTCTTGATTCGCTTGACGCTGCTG: 94.5 a.u.
AGCGCCTGCGCCCACCACGTGCTGGCAAGAATTGGGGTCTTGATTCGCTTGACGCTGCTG: 1140 a.u.

Set 2 — technique: RNA Bind-n-Seq; molecule type: RNA; medium: in vitro; concentration: 365 nM; baseline: no-protein control; reading: higher = stronger binding; quantity: RBNS enrichment (R)
Target: RNA binding protein fox-1 homolog 2, RRM domain, GST-SBP tag (RBFOX2, Homo sapiens, UniProt O43251-10, residues 100-194)
Setting: natural RNA segment, single round, ends assumed
Construct (chain): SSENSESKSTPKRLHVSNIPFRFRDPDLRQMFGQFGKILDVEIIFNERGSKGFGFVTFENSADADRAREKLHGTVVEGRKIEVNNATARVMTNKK
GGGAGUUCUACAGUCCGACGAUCACAGGACCAGAUUUUGGAGUCAUGGUCCGGUGUCCUUUUCACUACACCAUGUUUGAGCUCAGACCCCCACUCUCAUUCCCCAGGUGGCUGACCCAGUCCCUGGGGGAAGCUGGAAUUCUCGGGUGCCAA: 0.237
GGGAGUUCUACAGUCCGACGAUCAUUCGCCCUCACAGAGGGCGUGUGGUCCACGAAGCUGUCUACAGGGGAGGCUGCAGGCAGGAAGCAGGCGUGGGGCAGAAGACUGGGGACCCUUGAAGCGUCCAACUCAUUGGAAUUCUCGGGUGCCAA: 0.401
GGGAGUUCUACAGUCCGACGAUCAAACAUUACUCUCUCUUGGGAGUCUGACAUCCUCCACUGUCCUCCAUGGGCACCCGUGCUCACAUGCACAGACGCAAACACAGUUGUCAUACAUGCCACCACACAAAGACUGGAAUUCUCGGGUGCCAA: 0.326
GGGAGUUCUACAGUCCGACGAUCAGCAGCUCAGGACCCUUUCCCUUAGGGGCUGCUUCCUCCCCUCAAAACCAGAACCUGGCAAGGGACUCACUAGCCUGGAUGGCCCAUGGGAGACCAGGACAGAUGAGAAGUGGAAUUCUCGGGUGCCAA: 0.376
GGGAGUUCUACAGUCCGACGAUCGCUGGGCUGAGAGUUCUGCAGUCUAGCUCUGACUUAGGUCAGGGGCCUGUUGGUCUCUCAUUGGACGUUUUUGGGUCUCACUCAUGCUUACUGAAACAUUGUGCCAAGAAUGGAAUUCUCGGGUGCCAA: 0.255
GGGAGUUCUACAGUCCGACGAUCGGACAGGGCUGCAGGGCCACGCUGGUGGGAAAGACAAGAGCUGUGAAGGGCCUGGUCCCUCUCUAGAUAGUGGUUUCUUUAGGGUUAACAAAAGGCUUUUGUUCAUACCAUGGAAUUCUCGGGUGCCAA: 0.6
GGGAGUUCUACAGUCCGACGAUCUAAUUUUUGUUUAUUUAUUGUGAGCUUUUUACUUUAAGAUUUUACAUGAGUAAUCAAAAUUAAAUUAUAGCAUAAUGAAAUUAGACUCUUAACAGGUACGGCACACACAAUGGAAUUCUCGGGUGCCAA: 0.847
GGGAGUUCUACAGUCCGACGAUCUAGUAAGAACUAAGCAGGGGGCCACAUGCUCUCAAUGGAGACAAUAAAGUGUUGUCUUUUUCUUAUUUUUAUGUAGGUAUAUUUCCUAUAUGGGCAUUUUUGGGUAGAUUUGGAAUUCUCGGGUGCCAA: 0.777
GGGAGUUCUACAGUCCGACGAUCGACGCAGGCUGGGGCAAGUGGUGCGUGGGGCCUGGUCCCCAAGGGGCGGCUGAGAGGCCGCCACUGAGCAUCUCUAUCUGUCAUUCCUUUAGCUAUUUAGGGACCAAAGGUGGAAUUCUCGGGUGCCAA: 0.291

Set 3 — technique: protein binding microarray; molecule type: double-stranded DNA, one strand shown; medium: in vitro; concentration: not given; baseline: not given; reading: higher = stronger binding; quantity: E-score
Target: Histone acetyltransferase KAT6A, winged helix 1, GST fusion (KAT6A, Homo sapiens, UniProt Q92794, residues 1-85)
Setting: 8-mer, flanks averaged, mean of 2 arrays, mostly near background
Residues (chain): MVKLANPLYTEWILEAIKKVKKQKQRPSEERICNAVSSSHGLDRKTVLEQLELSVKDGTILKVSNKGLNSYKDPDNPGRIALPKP
CTTGTAGA: -0.0716
ACATGTTG: -0.108
ATTCATGG: -0.102
CGCTCTGA: 0.218
CCCTTGAA: 0.0143
CTACGAAA: -0.228
TAGATGCA: -0.2
TGCCCAAA: -0.204
CACGATGG: 0.0311
ACTCCACT: -0.299
GTCAATAA: -0.0799
CTAACTAG: 0.00014
ATCTAGTG: -0.126
CAGATGGA: -0.0457
TGACAACA: -0.126
TGGACCCA: -0.269
AAGTGTCA: -0.321
AGTCTAAT: -0.0849
ATCATTAG: -0.103
AACTCTCG: -0.0781
ACCGTTGC: 0.231
ACATCCAG: -0.132
GATTACGC: 0.171

Set 4 — technique: protein-binding microarray; molecule type: double-stranded DNA, one strand shown; medium: in vitro; concentration: 2200 nM top; setting: 60-bp whole probe; with: salmon DNA 0.4 mg/ml; baseline: random background probes; reading: higher = stronger binding; quantity: fitted relative affinity; constant ends, left off below: GCCTAGCAC … GTCTTGATTCGCTTGACGCTGCTG
Target: Interferon regulatory factor 7, full length, phosphomimetic (IRF7, Homo sapiens, UniProt Q92985, residues 1-503, S471D/S472D/S475D/S476D/S477D/S483D/S484D/S487D)
Residues (chain): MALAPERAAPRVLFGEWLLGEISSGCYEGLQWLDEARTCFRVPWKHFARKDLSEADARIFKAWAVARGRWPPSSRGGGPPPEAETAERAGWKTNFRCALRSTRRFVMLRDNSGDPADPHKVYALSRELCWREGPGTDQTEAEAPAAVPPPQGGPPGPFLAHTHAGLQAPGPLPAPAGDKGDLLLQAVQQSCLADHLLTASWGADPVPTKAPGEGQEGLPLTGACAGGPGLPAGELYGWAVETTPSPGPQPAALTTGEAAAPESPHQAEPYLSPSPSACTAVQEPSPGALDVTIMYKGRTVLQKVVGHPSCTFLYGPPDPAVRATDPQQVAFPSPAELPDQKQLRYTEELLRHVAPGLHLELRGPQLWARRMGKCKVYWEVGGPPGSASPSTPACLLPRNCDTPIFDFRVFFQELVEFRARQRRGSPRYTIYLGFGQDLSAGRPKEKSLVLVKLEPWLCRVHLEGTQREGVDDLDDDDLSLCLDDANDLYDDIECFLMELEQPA
TTCAGTTTTCTTTTCCATTTGTGCTAG: 5.94 z-score
TTCGGTATCCTTTTCCTTTAGTGCTAG: 2.85 z-score
TCACGGCTCGTTATCCTACTGTGCTAG: 1.11 z-score
GACGGTCTCCTACTTCTGACGTGCTAG: 1.15 z-score
TTTATTTTTACATTATTACCGTGCTAG: 2.48 z-score
TAAATTTTCACGGTGGGTTCGTGCTAG: 0.384 z-score
AATTCTTTGCTCATTTTTCAGGTGCTA: 0.834 z-score
GACGAACTGGGGACTGGAAACGTGCTA: 0.167 z-score
TAAGAACTGAGTCTCGATTAGTGCTAG: -0.177 z-score
GATCCTTCCCCTCTAGGTTCGTGCTAG: 1.92 z-score
TTAGGACTGGGGTATCGGTAAGTGCTA: -0.544 z-score
TTAGAACTGAGTCTCGATTCGTGCTAG: 0.608 z-score
TCATTTTACTTTCTATGACTGTGCTAG: 3.71 z-score
TTAGGTAACGGTATCGGTTAGTGCTAG: 0.114 z-score
GACGGACTCGACTATCGGGACGTGCTA: -0.433 z-score
TTAGAACTGGGGACTCGATTAGTGCTA: -0.186 z-score
GACGAGTCCAGTTTCGAGACGTGCTAG: 3.75 z-score
TTAATGTGTTCTTGGATTCGGTGCTAG: 0.746 z-score
TCAGGTCTCCCTTGAGGTTTGTGCTAG: 0.199 z-score
TTAGGTATCGGGCTGGGTTAGTGCTAG: -0.145 z-score
TCAGATTCCAGTTTCGATTAGTGCTAG: 7.1 z-score
TTATAACTGGGGACTGGATTAGTGCTA: -0.0142 z-score
TCATGTTTGGTGTCTTTTACTGTGCTA: 1.63 z-score
TTAGGACTGGGACTGGTTTAGTGCTAG: -0.662 z-score
TCAGGTTTGAGTCTTCTACTGTGCTAG: 0.731 z-score

Repeated from above (set 4):
TTAGGTAACGGTATCGGTTAGTGCTAG: 0.114 z-score
GACGGACTCGACTATCGGGACGTGCTA: -0.433 z-score
TTAGAACTGGGGACTCGATTAGTGCTA: -0.186 z-score
GACGAGTCCAGTTTCGAGACGTGCTAG: 3.75 z-score
TTAATGTGTTCTTGGATTCGGTGCTAG: 0.746 z-score
